Measurements pooled from the literature.
A part holds a random share of what one study measured. Positions count from the first letter of the parent shown.

Set 1
Target: Sal-like protein 4, full length isoform A (SALL4, Homo sapiens, UniProt Q9UJQ4, residues 1-1053)
Chain of UniProt Q9UJQ4 (whole entry, looked up): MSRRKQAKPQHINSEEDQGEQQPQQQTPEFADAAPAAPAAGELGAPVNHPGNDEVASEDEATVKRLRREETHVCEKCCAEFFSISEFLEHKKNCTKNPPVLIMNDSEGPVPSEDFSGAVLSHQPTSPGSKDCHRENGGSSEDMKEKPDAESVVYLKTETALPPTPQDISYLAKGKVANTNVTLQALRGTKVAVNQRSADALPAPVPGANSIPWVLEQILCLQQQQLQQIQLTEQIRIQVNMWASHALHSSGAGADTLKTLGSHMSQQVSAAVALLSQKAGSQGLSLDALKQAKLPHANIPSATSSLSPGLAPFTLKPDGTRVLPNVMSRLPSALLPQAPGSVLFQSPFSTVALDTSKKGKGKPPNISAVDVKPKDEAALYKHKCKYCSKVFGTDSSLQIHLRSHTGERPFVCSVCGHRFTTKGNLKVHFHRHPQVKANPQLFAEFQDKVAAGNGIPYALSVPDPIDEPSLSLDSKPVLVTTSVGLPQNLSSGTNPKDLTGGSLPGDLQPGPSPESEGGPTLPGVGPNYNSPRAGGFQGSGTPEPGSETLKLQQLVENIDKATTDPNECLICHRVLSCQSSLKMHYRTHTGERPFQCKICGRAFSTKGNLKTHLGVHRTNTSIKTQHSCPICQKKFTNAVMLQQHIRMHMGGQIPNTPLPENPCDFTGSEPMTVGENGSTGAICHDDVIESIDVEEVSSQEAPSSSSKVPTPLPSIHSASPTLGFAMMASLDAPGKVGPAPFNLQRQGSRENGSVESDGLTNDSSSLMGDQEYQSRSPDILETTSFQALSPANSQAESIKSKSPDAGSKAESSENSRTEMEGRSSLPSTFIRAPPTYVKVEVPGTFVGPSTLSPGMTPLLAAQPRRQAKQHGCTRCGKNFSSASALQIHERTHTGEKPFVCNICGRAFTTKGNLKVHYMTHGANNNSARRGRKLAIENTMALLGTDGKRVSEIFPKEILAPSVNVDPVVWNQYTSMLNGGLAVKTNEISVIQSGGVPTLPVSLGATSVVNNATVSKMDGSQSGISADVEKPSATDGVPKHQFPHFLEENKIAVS
Method: universal PBM
Form: double-stranded DNA, one strand shown
Matrix: in vitro
Tested at: 600 nM
Setting: 8-mer, flanks averaged, mean of replicates
Reading: higher = stronger binding
| Sequence | E-score |
| --- | --- |
| CTGCACGA | -0.124 |
| ATATCGCA | 0.107 |
| AAGTAATA | 0.32 |
| CCATCAAA | 0.028 |
| ATTCGTGC | 0.0592 |
| ACACACGA | -0.00449 |
| TTTCGAAA | 0.266 |
| ACGACAGC | -0.0449 |
| CGGTTCAC | -0.202 |
| ACAACATC | 0.232 |
| AGGAGACG | -0.326 |
| CGCAAGGA | -0.22 |
| GATTACGA | 0.167 |
| CACCTTCG | -0.116 |
| AAAGTTCA | 0.144 |
| TATTGCGA | 0.176 |
| TAAGCCAA | 0.13 |
| GGTTTCGA | -0.25 |
| AATTTGCT | 0.234 |
| AATTGTAA | 0.327 |
| AGCATCCT | -0.183 |
| CCCAAGAA | 0.012 |
| CACTCCCG | -0.127 |
| GGTGGTAC | -0.28 |
| AAGAGGTA | 0.0338 |

Set 2
Target: Ras GTPase-activating protein-binding protein 1, RRM domain (G3BP1, Homo sapiens, UniProt Q13283)
Chain of UniProt Q13283 (whole entry, looked up): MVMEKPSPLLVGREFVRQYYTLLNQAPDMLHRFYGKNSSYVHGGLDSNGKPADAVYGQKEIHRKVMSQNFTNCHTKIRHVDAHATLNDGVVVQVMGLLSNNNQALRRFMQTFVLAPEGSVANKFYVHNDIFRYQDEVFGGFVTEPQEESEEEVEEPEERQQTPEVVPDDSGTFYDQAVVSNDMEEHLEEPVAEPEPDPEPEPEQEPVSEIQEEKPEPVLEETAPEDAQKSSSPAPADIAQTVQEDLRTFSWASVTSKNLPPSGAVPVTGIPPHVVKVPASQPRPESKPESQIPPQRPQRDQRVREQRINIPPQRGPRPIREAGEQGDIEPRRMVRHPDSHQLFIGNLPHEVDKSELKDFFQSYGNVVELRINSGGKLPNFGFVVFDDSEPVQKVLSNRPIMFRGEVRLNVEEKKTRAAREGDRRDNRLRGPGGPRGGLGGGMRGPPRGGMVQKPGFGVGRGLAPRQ
Method: RNA Bind-n-Seq
Form: RNA
Matrix: in vitro
Tested at: 1 µM
Setting: whole 134-nt RNA, ends assumed
Added: 150 mM KCl
Baseline: input library
Reading: higher = stronger binding
All sequences stand within: GGGAGUUCUACAGUCCGACGAUC … UGGAAUUCUCGGGUGUCAAGG
| Sequence | log2 enrichment |
| --- | --- |
| UAACUUUAGAGGAGGAUCUGAUGGAUAUGGCAGUGGACGUGGAUUUGGGGAUGGCUAUAAUGAGUAUGGAGGAGGACCUGGAGGUGGCAA | -0.416 |
| ACCAUGCAGGUGGGCAUCUUUGGGAAGUGGGGCAAGGGGGGGAUAGGGAGGGGGGUAACACUUUGGGAACAGGUGGUCCCAGAAAGUUUC | -0.531 |
| CUGUGCUACACAUCGUAUGUACCGAAUCGGGGCCCCCCGGGCCCCCCGGGGCCCCCCGGGGAAAGUAUUAUGUUACGCCGUUCGGAUCUG | -0.762 |
| UGGCCCUGGUGGCAUGCGGGGAGGAAGAGGUGGCCUCAUGGAUCGUGGUGGCCCCGGUGGAAUGUUCAGAGGUGGCCGUGGUGGAGACAG | 0.0909 |
| UGCAGACGGGGAACCUGCUGAACUGGGGCCGCCUGCGGAAGAAGUGCCCGUCCACGCACAGCGAGGAGGUGAGCGUGGCGACACUCGCCG | -0.815 |
| UAACUUUAGAGGAGGAUCUGAUGGAUAUGGCAGUGGACGUGGAUUAGGGGAUGGCUAUAAUGGGUAUGGAGGAGGACCUGGAGGUGGCAA | -0.396 |
| UCCUGUGCUACACAUCGUAUGUACCGAAUCGGGGAAAGGGGUUUUUGGGGAAAAAGGGGAAAGUAUUAUGUUACGCCGUUCGGAUCUGCA | 0.925 |
| AAGUCCUGUGCUACACAUCGUAUGUACCGAAUCGGUGGAAAAAAAGGAAAAAAAGGAAAGUAUUAUGUUACGCCGUUCGGAUCUGCACUU | 0.0534 |
| UCAAGUCCUGUGCUACACAUCGUAUGUACCGAAUCGGAAAGGUUUUUGGUUUGGAAAGUAUUAUGUUACGCCGUUCGGAUCUGCACUUCC | -0.315 |

Set 3
Target: ABI1, truncated, D143A, DHFR fusion (Arabidopsis thaliana)
Method: DHFR PCA, deep sequencing
Matrix: yeast
Setting: methotrexate growth selection, single substitutions
Added: (+)-ABA 710 µM
Baseline: wild-type fitted maximum
Reading: higher = stronger binding
Parent: PYL1, truncated, DHFR fusion (Arabidopsis thaliana); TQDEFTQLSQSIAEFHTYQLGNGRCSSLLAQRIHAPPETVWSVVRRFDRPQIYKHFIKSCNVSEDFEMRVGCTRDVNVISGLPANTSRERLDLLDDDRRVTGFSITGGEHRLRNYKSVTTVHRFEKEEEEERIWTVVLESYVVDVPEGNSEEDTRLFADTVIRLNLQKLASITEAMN; partner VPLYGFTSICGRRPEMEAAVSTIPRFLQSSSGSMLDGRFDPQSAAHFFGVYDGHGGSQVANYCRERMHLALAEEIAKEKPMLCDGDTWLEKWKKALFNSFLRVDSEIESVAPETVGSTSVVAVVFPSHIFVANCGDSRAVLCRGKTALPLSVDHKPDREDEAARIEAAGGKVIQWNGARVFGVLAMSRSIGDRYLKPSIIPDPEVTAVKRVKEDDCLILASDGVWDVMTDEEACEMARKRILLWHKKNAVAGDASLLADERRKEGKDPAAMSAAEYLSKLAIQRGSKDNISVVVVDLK
| Substitution | relative binding score [%] |
| --- | --- |
| L94G | -18 |
| L164N | 101 |
| F5N | 98.7 |
| S59C | 96.8 |
| S150T | 103 |
| A84M | 29.4 |
| S104V | 80.8 |
| R24M | 99.5 |
| R74P | -0.483 |
| E67Q | 106 |
| V136W | 96.5 |
| C72H | 97.1 |
| K58Q | 99.7 |
| L28C | 92 |

Set 4
Target: CCNE1, cyclin fold, Cln2 fusion (human)
Method: yeast growth competition, sequencing
Matrix: yeast
Setting: strong parent motif
Baseline: not given
Reading: higher = stronger binding
Parent: REPIN1 docking peptide (human); QSFRGWVALVLHL
| Substitution | normalised enrichment score |
| --- | --- |
| QSFRGWVAAVLHL [L9A] | 0.649 |
| QSFRGWVALVAHL [L11A] | 1.5 |
| QSFRGWVALVLAL [H12A] | 1.08 |
| QSFRAWVALVLHL [G5A] | 1.52 |
| QSFRGAVALVLHL [W6A] | 0.535 |
| QSFRGWVALALHL [V10A] | 0.799 |

Set 5
Target: RNA binding protein fox-1 homolog 2, RRM domain, GST-SBP tag (RBFOX2, Homo sapiens, UniProt O43251-10, residues 100-194)
Method: RNA Bind-n-Seq
Form: RNA
Matrix: in vitro
Tested at: 365 nM
Setting: natural RNA segment, single round, ends assumed
Baseline: no-protein control
Reading: higher = stronger binding
All sequences stand within: GGGAGUUCUACAGUCCGACGAUC … UGGAAUUCUCGGGUGCCAA
Construct (chain): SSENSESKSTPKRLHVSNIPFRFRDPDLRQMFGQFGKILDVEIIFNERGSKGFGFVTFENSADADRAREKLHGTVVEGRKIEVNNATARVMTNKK
| Sequence | RBNS enrichment (R) |
| --- | --- |
| AGUGUUCUCAUGAAGCAGGAGGCCCUUGUCGUGGGAUGGCAUUUGGUCUCAGGCAGCACCACACUGGGUGCGUCUCCAGUCAUCUGUAAGAGCUUGCUCCAGAUUCUGAU | 0.475 |
| ACAGGCAAAAAUAUAGAAUGUUACAUAGUGUUGUGUGAUUAAAUUAUAGUUCCUGCUGUUAACAUUACCUUUUGAAACCUUGGCUCCAGUUUUGGUGCUUCUUAUACAAA | 2.51 |
| AUGGUCUUUCUAAAUGAUUAAAGAAAUCAUUUGCGUUGGUUCUUGUUUUUUGUGUUUUCCCUCUAUUUUCAACCAAAUCCUAGAGCCAGCUGAGACUGCUGAGUAAUCUG | 0.415 |
| GCCUUGCCCUCAUGAAGCAUCAUUGAAAUAGCAGGAGCAUGUUGAUUUCUUGGUUAGGUUGCAUUAUAAUAACAAGAGUCAGAACAUUAAUUCGAAACAACUUGCAGUAU | 3.66 |
| UUAGCCUCAGGCCUCAUGAGGGUCUCCACAGGGCCGGAGCUCAGGUUACACCACUCCUUCGUCCUUACAGGAGAUGUAGGGAGAAGAAUCUGCAGGCUGCUUGUAGGACU | 0.288 |
| GUUGUUUGUAUUUUGCUUAACUAAAACAAAAAUGCUUUUAUCUUGCUAUAGAAUAAACACAUUUCAGAAAAUCUGUGGACUGUAUUUUGAUGCAACCGCAAGGACACUGU | 0.481 |
| UUAAGACAUAUACAAAGACAAAUGACAGCAAUUCAUGGUUCAAGUAUAAAGCAGUUCAUUCUACCAAGCUGUCACAGGAUCUUAGAGAAUUAUCUCAAGUAAAACAGUGA | 0.437 |
| CUAGAACCAGUAACACUGAGACAUUGUUACCAGUCCUGAGGCUGAGAUUCAAUAAAAACUUACAGCUAUGAUAGUGUUGUGUGACUUUAUAGAAAUCUGAUUUUAUAACU | 0.361 |

Some of these lines once more (set 3):
| Substitution | relative binding score [%] |
| --- | --- |
| C72H | 97.1 |
| S59C | 96.8 |
| V136W | 96.5 |
| F5N | 98.7 |
